Experimental data gathered from unrelated publications.
Compare with care: the assays were run in different laboratories. Numbers after ± are the reported error.
Target: Amine oxidase [flavin-containing] B (MAOB, Homo sapiens, UniProt P27338)
UniProt P27338, sequence (whole entry, looked up): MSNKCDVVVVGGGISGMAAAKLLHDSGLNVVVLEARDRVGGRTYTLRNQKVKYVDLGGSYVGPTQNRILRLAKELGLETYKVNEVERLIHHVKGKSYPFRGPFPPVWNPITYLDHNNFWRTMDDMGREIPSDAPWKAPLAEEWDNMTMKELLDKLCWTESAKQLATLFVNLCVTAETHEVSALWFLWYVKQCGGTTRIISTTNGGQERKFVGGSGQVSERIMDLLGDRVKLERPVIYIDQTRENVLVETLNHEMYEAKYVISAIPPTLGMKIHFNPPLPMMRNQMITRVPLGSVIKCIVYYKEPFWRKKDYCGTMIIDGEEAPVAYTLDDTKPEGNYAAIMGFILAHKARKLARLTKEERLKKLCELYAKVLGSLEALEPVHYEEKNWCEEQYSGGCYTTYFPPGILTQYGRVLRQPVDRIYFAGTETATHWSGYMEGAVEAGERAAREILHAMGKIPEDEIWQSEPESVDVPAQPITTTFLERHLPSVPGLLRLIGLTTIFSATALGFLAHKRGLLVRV

Structure (SMILES)	assay	conditions	scale	endpoint	result
O=C1CCCC2=C1C(c1c[nH]c3ccccc13)n1c(sc(=Cc3c[nH]c4ccccc34)c1=O)=N2 (stereo not shown)	enzyme activity	–	baseline: MAO-A IC50 over MAO-B IC50	selectivity ratio	3.1
NC1CC1c1ccc(NC(=O)C(Cc2ccccc2)NC(=O)OCc2ccc(Br)cc2)cc1 (stereo not shown)	enzyme activity, inhibitor, HRP-coupled	100 µM, with: benzylamine	–	inhibition	29%
CC(=O)C1=C(C)NC(SCCCSc2nnc(Cc3ccccc3Nc3c(Cl)cccc3Cl)n2-c2ccc(Cl)c(Cl)c2)=NC1c1ccc(Cl)cc1 (stereo not shown)	fluorometric	–	baseline: IC50 hMAO-A over IC50 hMAO-B	selectivity ratio	0.7
NC1CC1c1ccc(NC(=O)C(CCc2ccccc2)NC(=O)OCc2ccccc2)cc1 (stereo not shown)	enzyme activity, inhibitor, HRP-coupled	100 µM, with: benzylamine	–	inhibition	42%
C[C@H](NCc1ccc(-c2ccc(C(F)(F)F)cc2)cc1)C(N)=O	enzyme activity	1 µM, with: kynuramine 50.0 µM	–	inhibition	> 99%
COc1ccc(C2N=C(SCCCSc3nnc(Cc4ccccc4Nc4c(Cl)cccc4Cl)n3-c3ccc(Cl)c(Cl)c3)NC(C)=C2C(C)=O)cc1 (stereo not shown)	fluorometric	–	baseline: IC50 hMAO-A over IC50 hMAO-B	selectivity ratio	0.3
Fc1cccc(COc2ccc(/C=N/NC(=S)Nc3ccccc3)cc2)c1	enzyme activity, inhibitor, absorbance	10 µM	–	remaining activity	54.4%
CC(=O)C1=C(C)NC(SCCCSc2nnc(Cc3ccccc3Nc3c(Cl)cccc3Cl)n2-c2ccc(Cl)c(Cl)c2)=NC1c1ccccc1 (stereo not shown)	fluorometric	–	baseline: IC50 hMAO-A over IC50 hMAO-B	selectivity ratio	0.1
CCS(=O)(=O)N1CCN(CC(=O)Nc2ccc(/C=C/C(=O)c3ccc(OC)c(OC)c3)cc2)CC1	enzyme activity, inhibitor, fluorometric	1000 µM	–	inhibition	52.9 ± 1.77%
NC(=O)N/N=C/c1ccc(OCc2ccccc2)cc1	enzyme activity, inhibitor, absorbance	10 µM	–	remaining activity	13.4%
